Results of several laboratories.
Protocols differ between the studies behind these lines. Numbers after ± are the reported error. Values after ≈ are worked out from the molar mass of the structure shown.

With `CCC1(CC)C2CC3CC(C2)CC1(N(C)C)C3` the EC50 was 1 ± 0.3 µM (Influenza A virus; viral replication; A/PR/8/34 parent allantoic stock; pH 4.9).
For `CC(C)C1=C[C@@]23CC[C@@H]4[C@](C)(CCC[C@@]4(C)C(=O)OCC#CCN4CCOCC4)[C@H]2C[C@@H]1[C@H]1C(=O)OC(=O)[C@H]13`, the IC50 was 6.47 µM (Influenza A virus; viral replication; MDCK, A/Puerto Rico/8/34 (H1N1)).
With `CC[C@H](C)[C@H](NC(=O)[C@H](CCCNC(=N)N)NC(=O)[C@H](CCCCN)NC(=O)[C@H](CC(C)C)NC(=O)[C@H](CC(C)C)NC(=O)CN)C(=O)N[C@@H](CCCCN)C(=O)N[C@H](C(=O)N[C@@H](CC(C)C)C(=O)N[C@@H](CC(C)C)C(=O)NCCCC[C@H](NC(=O)[C@H](CC(C)C)NC(=O)[C@H](CC(C)C)NC(=O)[C@@H](NC(=O)[C@H](CCCCN)NC(=O)[C@@H](NC(=O)[C@H](CCCNC(=N)N)NC(=O)[C@H](CCCCN)NC(=O)[C@H](CC(C)C)NC(=O)[C@H](CC(C)C)NC(=O)CN)[C@@H](C)CC)[C@@H](C)O)C(=O)NCCCC[C@H](NC(=O)[C@H](CCCCNC(=O)[C@H](CC(C)C)NC(=O)[C@H](CC(C)C)NC(=O)[C@@H](NC(=O)[C@H](CCCCN)NC(=O)[C@@H](NC(=O)[C@H](CCCNC(=N)N)NC(=O)[C@H](CCCCN)NC(=O)[C@H](CC(C)C)NC(=O)[C@H](CC(C)C)NC(=O)CN)[C@@H](C)CC)[C@@H](C)O)NC(=O)[C@H](CC(C)C)NC(=O)[C@H](CC(C)C)NC(=O)[C@@H](NC(=O)[C@H](CCCCN)NC(=O)[C@@H](NC(=O)[C@H](CCCNC(=N)N)NC(=O)[C@H](CCCCN)NC(=O)[C@H](CC(C)C)NC(=O)[C@H](CC(C)C)NC(=O)CN)[C@@H](C)CC)[C@@H](C)O)C(N)=O)[C@@H](C)O` the FIC index was 0.125 (Klebsiella pneumoniae; checkerboard; ATCC 700603; with: polymyxin B).
`O=C1/C(=N\NC(=S)NN=Cc2cccs2)c2ccccc2N1Cc1ccccc1` gave an EC50 of over 4 µM (Influenza A virus H3N2; viral replication, visual CPE score; MDCK).
`N=C(N)N1CC23C4CCC5C4C4C2CCC4C53C1` gave an EC50 of over 100 µM (Influenza A virus; viral replication; MDCK, H3N2 A/HK/7/87).
For `c1cc2c(s1)CCOC21CCN(Cc2ccc3c(c2)OCCO3)CC1`, the MIC was 64 µM (≈ 22.9 µg/mL) (Haemophilus influenzae; broth microdilution; H128 AcrA-).
`CC[C@H](C)[C@H](NC(=O)[C@H](CCCNC(=N)N)NC(=O)[C@H](CCCCN)NC(=O)[C@H](CC(C)C)NC(=O)[C@H](CC(C)C)NC(=O)CN)C(=O)N[C@@H](CCCCN)C(=O)N[C@H](C(=O)N[C@@H](CC(C)C)C(=O)N[C@@H](CC(C)C)C(=O)NCCCC[C@H](NC(=O)[C@H](CC(C)C)NC(=O)[C@H](CC(C)C)NC(=O)[C@@H](NC(=O)[C@H](CCCCN)NC(=O)[C@@H](NC(=O)[C@H](CCCNC(=N)N)NC(=O)[C@H](CCCCN)NC(=O)[C@H](CC(C)C)NC(=O)[C@H](CC(C)C)NC(=O)CN)[C@@H](C)CC)[C@@H](C)O)C(N)=O)[C@@H](C)O` gave an FIC index of 0.5 (Klebsiella pneumoniae; checkerboard; ATCC 700603; with: polymyxin B).
For `N=C(N)NCC12C3CCC4C3C3C(CCC31)C42`, the EC50 was over 100 µM (Influenza A virus; viral replication; MDCK, H3N2 A/HK/7/87).
`COc1ccc(CCNc2cc(-c3ccccc3)nc3ncnn23)cc1` gave an MIC of 64 µM (≈ 22.1 µg/mL) (Haemophilus influenzae; microbial growth, broth dilution; H128).
For `CC[C@H](C)[C@H](NC(=O)CNC(=O)[C@@H](NC(=O)[C@@H](N)Cc1ccccc1)[C@@H](C)CC)C(=O)N[C@@H](CCSC)C(=O)N[C@@H](C)C(=O)N[C@H](C(=O)N[C@@H](CC(C)C)C(=O)N[C@@H](C)C(=O)N[C@@H](CO)C(=O)N[C@@H](CC(C)C)C(=O)N[C@H](C(=O)N[C@H](C(=O)N1CCC[C@H]1C(=O)N[C@@H](CCCCN)C(=O)N[C@@H](CC(C)C)C(=O)N[C@H](C(=O)N[C@@H](CCC(=O)O)C(=O)N[C@@H](CCCCN)C(=O)N[C@H](C(=O)N[C@@H](CCCCN)C(=O)N[C@@H](CCC(N)=O)C(=O)N[C@@H](C)C(=O)N[C@@H](CCCNC(=N)N)C(N)=O)[C@@H](C)CC)[C@@H](C)CC)[C@@H](C)CC)C(C)C)[C@@H](C)O`, the MIC was over 50 µM (Aspergillus flavus; ATP luminescence; ATCC 9170; 48 h, 37 °C).
`c1csc(CNC23C4CCC5C4C4C(CCC42)C53)c1` has an EC50 of under 10 µM (Influenza A virus; viral replication; MDCK, H1N1 A/PR/8/34).
For `Cc1cccc(-c2nc(Nc3ccncn3)c3c(C)csc3n2)n1`, the MIC was 16 µM (≈ 5.35 µg/mL) (Haemophilus influenzae; microbial growth, broth dilution; H128).
`CCCCCCCC(=O)NCC(=O)N[C@@H](CC(C)C)C(=O)N[C@@H](CC(C)C)C(=O)N[C@@H](CCCCN)C(=O)N[C@@H](CCCNC(=N)N)C(=O)N[C@H](C(=O)N[C@@H](CCCCN)C(=O)N[C@H](C(=O)N[C@@H](CC(C)C)C(=O)N[C@@H](CC(C)C)C(N)=O)[C@@H](C)O)[C@@H](C)CC` has an FIC index of 0.25 (Klebsiella pneumoniae; checkerboard; ATCC 700603; with: polymyxin B).
`O=S(=O)(O)CCCCCCCCCCCSC[C@H]1O[C@@H]2O[C@H]3[C@H](O)[C@@H](O)[C@@H](O[C@H]4[C@H](O)[C@@H](O)[C@@H](O[C@H]5[C@H](O)[C@@H](O)[C@@H](O[C@H]6[C@H](O)[C@@H](O)[C@@H](O[C@H]7[C@H](O)[C@@H](O)[C@@H](O[C@H]8[C@H](O)[C@@H](O)[C@@H](O[C@H]1[C@H](O)[C@H]2O)O[C@@H]8CSCCCCCCCCCCCS(=O)(=O)O)O[C@@H]7CSCCCCCCCCCCCS(=O)(=O)O)O[C@@H]6CSCCCCCCCCCCCS(=O)(=O)O)O[C@@H]5CSCCCCCCCCCCCS(=O)(=O)O)O[C@@H]4CSCCCCCCCCCCCS(=O)(=O)O)O[C@@H]3CSCCCCCCCCCCCS(=O)(=O)O` — result for antiviral activity: “no inhibition” (Influenza A virus H3N2; viral replication; concentration not given).
`c1ccc(CNCC23C4CCC5C4C4C(CCC42)C53)cc1` gave an EC50 of over 100 µM (Influenza A virus; viral replication; MDCK, H3N2 A/HK/7/87).
`CCCCCCCCCC(=O)NCC(=O)N[C@@H](CC(C)C)C(=O)N[C@@H](CC(C)C)C(=O)N[C@@H](CCCCN)C(=O)N[C@@H](CCCNC(=N)N)C(=O)N[C@H](C(=O)N[C@@H](CCCCN)C(=O)N[C@H](C(=O)N[C@@H](CC(C)C)C(=O)N[C@@H](CC(C)C)C(N)=O)[C@@H](C)O)[C@@H](C)CC` has an FIC index of 0.375 (Klebsiella pneumoniae; checkerboard; ATCC 700603; with: rifampicin).
The selectivity index of `CC(C)C1=C[C@@]23CC[C@@H]4[C@](C)(CCC[C@@]4(C)C(=O)NCC#CCN4CCCNCC4)[C@H]2C[C@@H]1[C@H]1C(=O)OC(=O)[C@H]13` is reported as 2.01 (Influenza A virus; MDCK, A/Puerto Rico/8/34 (H1N1); relative to: CC50 over IC50).
The EC50 of `N=C(N)N1CC23C4C5CC5C5C4C4C2C2CC2C4C53C1` (centres unmarked) is reported as over 100 µM (Influenza A virus; viral replication; MDCK, H3N2 A/HK/7/87).
With `Cc1nc(N2CCC(N(C)c3cc(C(=O)NCCN4CCCC4)cnn3)CC2)nc(C)c1CC(C)C` the inhibition was 53% (human coronavirus 229E; viral replication; Huh-7; 3 µM).
For `CCN(CC)CCOC1CCC2(C)C(=CCC3C4CCC(=O)C4(C)CCC32)C1` (centres unmarked), the IC50 was 2.6 µM (Human coronavirus 229E; viral replication, imaging; MRC5; 24 h).
For `CONC(=O)[C@H]1[C@@H](O)[C@@]2(O)c3c(OC)cc(OC)cc3O[C@@]2(c2ccc(OC)cc2)[C@@H]1c1ccccc1`, “replication complex formation” read “decreased” (Human coronavirus 229E; measured: nsp8 and dsRNA; MRC-5; concentration not given, 24 h post-infection).
With `CCN(CC)C12C3CCC4C3C3C(CCC31)C42` the EC50 was 8.7 ± 3.3 µM (Influenza A virus; viral replication; MDCK, A/Ned/378/05 (H1N1)).
`CC(C)c1ccc2c(c1)CC[C@H]1[C@](C)(C(=O)OCC#CCN3CCCC3)CCC[C@]21C` gave an IC50 of 46.2 µM (Influenza A virus; viral replication; MDCK, A/Puerto Rico/8/34 (H1N1)).
For `COc1ccc2nc(C)cc(OCC(=O)Nc3cc(C)cc(C)c3)c2c1`, the MIC was 32 µM (≈ 11.2 µg/mL) (Haemophilus influenzae; broth microdilution; H128 AcrA-).
With `CCCC(=O)NCC(=O)N[C@@H](CC(C)C)C(=O)N[C@@H](CC(C)C)C(=O)N[C@@H](CCCCN)C(=O)N[C@@H](CCCNC(=N)N)C(=O)N[C@H](C(=O)N[C@@H](CCCCN)C(=O)N[C@H](C(=O)N[C@@H](CC(C)C)C(=O)N[C@@H](CC(C)C)C(=O)NCCCC[C@H](NC(=O)[C@H](CCCCNC(=O)[C@H](CC(C)C)NC(=O)[C@H](CC(C)C)NC(=O)[C@@H](NC(=O)[C@H](CCCCN)NC(=O)[C@@H](NC(=O)[C@H](CCCNC(=N)N)NC(=O)[C@H](CCCCN)NC(=O)[C@H](CC(C)C)NC(=O)[C@H](CC(C)C)NC(=O)CNC(=O)CCC)[C@@H](C)CC)[C@@H](C)O)NC(=O)[C@H](CC(C)C)NC(=O)[C@H](CC(C)C)NC(=O)[C@@H](NC(=O)[C@H](CCCCN)NC(=O)[C@@H](NC(=O)[C@H](CCCNC(=N)N)NC(=O)[C@H](CCCCN)NC(=O)[C@H](CC(C)C)NC(=O)[C@H](CC(C)C)NC(=O)CNC(=O)CCC)[C@@H](C)CC)[C@@H](C)O)C(N)=O)[C@@H](C)O)[C@@H](C)CC` the FIC index was 0.312 (Klebsiella pneumoniae; checkerboard; ATCC 700603; with: polymyxin B).
With `O=C(NC12CC3CC(CC(C3)C1)C2)c1cc2cc(Cl)ccc2[nH]1` the MIC was over 64 µM (Haemophilus influenzae; microbial growth, broth dilution; H128).
`CC[C@H](C)[C@H](NC(=O)[C@H](CCCNC(=N)N)NC(=O)[C@H](CCCCN)NC(=O)[C@H](CC(C)C)NC(=O)[C@H](CC(C)C)NC(=O)CN)C(=O)N[C@@H](CCCCN)C(=O)N[C@H](C(=O)N[C@@H](CC(C)C)C(=O)N[C@@H](CC(C)C)C(=O)NCCCC[C@H](NC(=O)[C@H](CCCCNC(=O)[C@H](CC(C)C)NC(=O)[C@H](CC(C)C)NC(=O)[C@@H](NC(=O)[C@H](CCCCN)NC(=O)[C@@H](NC(=O)[C@H](CCCNC(=N)N)NC(=O)[C@H](CCCCN)NC(=O)[C@H](CC(C)C)NC(=O)[C@H](CC(C)C)NC(=O)CN)[C@@H](C)CC)[C@@H](C)O)NC(=O)[C@H](CC(C)C)NC(=O)[C@H](CC(C)C)NC(=O)[C@@H](NC(=O)[C@H](CCCCN)NC(=O)[C@@H](NC(=O)[C@H](CCCNC(=N)N)NC(=O)[C@H](CCCCN)NC(=O)[C@H](CC(C)C)NC(=O)[C@H](CC(C)C)NC(=O)CN)[C@@H](C)CC)[C@@H](C)O)C(N)=O)[C@@H](C)O` gave an FIC index of 0.375 (Klebsiella pneumoniae; checkerboard; ATCC 700603; with: rifampicin).
`NC12C3CCC4C3C3C(CCC31)C42` gave an EC50 of over 100 µM (Influenza A virus; viral replication; MDCK, H3N2 A/HK/7/87).
`CSCC[C@@H](C=O)NC(=O)[C@H](CC(C)C)NC(=O)[C@H](CC(C)C)NC(C)=O` gave an EC50 of 1.24 ± 0.04 µM (human coronavirus NL63; viral replication).

Repeated from above:
The EC50 of `N=C(N)N1CC23C4C5CC5C5C4C4C2C2CC2C4C53C1` (centres unmarked) is reported as over 100 µM (Influenza A virus; viral replication; MDCK, H3N2 A/HK/7/87).
With `Cc1nc(N2CCC(N(C)c3cc(C(=O)NCCN4CCCC4)cnn3)CC2)nc(C)c1CC(C)C` the inhibition was 53% (human coronavirus 229E; viral replication; Huh-7; 3 µM).
For `CCN(CC)CCOC1CCC2(C)C(=CCC3C4CCC(=O)C4(C)CCC32)C1` (centres unmarked), the IC50 was 2.6 µM (Human coronavirus 229E; viral replication, imaging; MRC5; 24 h).
